Results of several laboratories.
Each numbered part is a random draw from the data of one study; scales do not carry over between parts. Changes are numbered by the printed parent chain.

Sample 1
Target: Phosphate system positive regulatory protein PHO4, full length, GST-tagged (PHO4, Saccharomyces cerevisiae, UniProt P07270, residues 1-312)
Technique: competition protein-binding microarray
Form: double-stranded DNA, one strand shown
Sample: in vitro
Tested at: 2 µM
Setting: whole 60-bp probe, lowest competitor level
Together with: Cbf1 competitor, 0.05 µM
Reading: higher = stronger binding
Construct (chain): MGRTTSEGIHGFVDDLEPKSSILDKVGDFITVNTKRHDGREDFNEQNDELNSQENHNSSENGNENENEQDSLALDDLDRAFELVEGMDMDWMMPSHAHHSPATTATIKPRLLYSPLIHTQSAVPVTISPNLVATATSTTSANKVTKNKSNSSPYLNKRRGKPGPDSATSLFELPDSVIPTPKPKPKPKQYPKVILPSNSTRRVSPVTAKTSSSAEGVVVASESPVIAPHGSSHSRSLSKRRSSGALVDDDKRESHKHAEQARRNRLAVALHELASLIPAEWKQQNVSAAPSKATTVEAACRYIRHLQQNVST
Oligonucleotide | fluorescence intensity
ATAAAGTGTCCCTGTCACACTCATACAACAACTGTTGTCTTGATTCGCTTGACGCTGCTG | 4570 a.u.
ATTGAAGGTGTAGAGGCCGTGACGAATTGATGTGGTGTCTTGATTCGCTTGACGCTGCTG | 4890 a.u.
TGTTTGGCTGGTGTGTACGTGGTGAAAACCAAGAATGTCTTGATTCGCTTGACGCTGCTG | 7550 a.u.
CTTTCCCGATCTTGTCACGCCACTTTAGCACATTTGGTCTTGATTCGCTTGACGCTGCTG | 5770 a.u.
GTCTTGTCTCATTGACACGTGTTTTTCCCCACTTCAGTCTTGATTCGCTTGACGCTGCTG | 15300 a.u.
GAAATAAAGGGAACACACGTGAAATTGAAGGACAGCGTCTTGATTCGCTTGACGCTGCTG | 12300 a.u.
CGTCCTAGTGATTTTCACGTGCGTTCCATGAGGAAGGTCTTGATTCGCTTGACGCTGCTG | 13600 a.u.
GACCAGAAACGTCGTCATGTGGCCAAAGTCGGGCCAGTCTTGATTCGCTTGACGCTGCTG | 6650 a.u.
GGGTACGGACCCCGTCACGTAAGACGATGCCGATGCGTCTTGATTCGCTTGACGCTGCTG | 3930 a.u.
GATTCCATTCGATTCCATGTGATGATTCCATTCTATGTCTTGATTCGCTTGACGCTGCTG | 6390 a.u.

Sample 2
Target: Interferon regulatory factor 5, full length, phosphomimetic (IRF5, Homo sapiens, UniProt Q13568-2, residues 1-514, S451D/S453D/S456D/S462D)
Technique: protein-binding microarray
Form: double-stranded DNA, one strand shown
Sample: in vitro
Tested at: 940 nM top
Setting: 60-bp whole probe
Together with: salmon DNA 0.4 mg/ml
Baseline: random background probes
Reading: higher = stronger binding
All sequences stand within: GCCTAGCAC … GTCTTGATTCGCTTGACGCTGCTG
Oligonucleotide | fitted relative affinity
GCCGGACTGGGACTGGGGACGTGCTAG | -0.7 z-score
TTAGGTCTCCTTTTGCTTTAGTGCTAG | 0.723 z-score
TCATCTCTACTTGTGTCACTGTGCTAG | 0.949 z-score
GACAGTTTCCTACTGCTGACGTGCTAG | 1.43 z-score
GACGGTAGCCTACTGCTGACGTGCTAG | -0.858 z-score
TTAGGTCTCGGTTTCGCTTAGTGCTAG | 7.33 z-score
TCATATATACCTGTATAACTGTGCTAG | 0.0736 z-score
GACGGTCTCCTACTGCTGGCGTGCTAG | -0.158 z-score
CAGTTTATTTATTTTTACATGTGCTAG | 0.694 z-score
ACTGTGTTTTGGATGTCAGAGTGCTAG | 0.141 z-score
GACGGTTTCTGGTTTCGGGACGTGCTA | 5.76 z-score
TTAGGTTTACTTATCCTTTAGTGCTAG | -0.216 z-score
TTAGGACTGGGTCTCGCTTAGTGCTAG | 0.182 z-score
TTAGGACTGGATTTCGGTTAGTGCTAG | 0.451 z-score
TCAATAATGGATATATAACTGTGCTAG | 0.0619 z-score
CTGGCTGGGGTGGTGGCAGTGTGCTAG | -0.592 z-score
TTTGGTCTCCTACTGCTTTAGTGCTAG | 0.455 z-score
TCAGCTTTGCTTCCTGCACTGTGCTAG | -0.0753 z-score
GACGGTCCCCTACTGCTGACGTGCTAG | 0.231 z-score

Sample 3
Target: CREM, bZIP domain (human)
Technique: DHFR protein complementation
Sample: yeast
Setting: single substitutions, most at no-binding floor
Baseline: wild-type JUN-FOS pair
Reading: higher = stronger binding
Starting sequence: JUN, bZIP domain (human); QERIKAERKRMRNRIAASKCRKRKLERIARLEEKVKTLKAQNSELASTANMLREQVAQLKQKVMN; partner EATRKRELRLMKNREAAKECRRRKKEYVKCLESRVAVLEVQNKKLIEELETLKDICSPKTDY
Substitution | binding fitness [natural log]
L31Y | -1.54
A46E | -1.26
V35A | -1.36
T37W | -1.44
A49V | -1.37
Q41M | -1.41
A40T | -1.52
L31E | -1.61
A49H | -1.46
K39S | -1.39

Sample 4
Target: Histone acetyltransferase KAT6A, winged helix 2, GST fusion (KAT6A, Homo sapiens, UniProt Q92794, residues 85-181)
Technique: protein binding microarray
Form: double-stranded DNA, one strand shown
Sample: in vitro
Tested at: not given
Setting: 8-mer, flanks averaged, mean of 2 arrays, mostly near background
Baseline: not given
Reading: higher = stronger binding
Residues (chain): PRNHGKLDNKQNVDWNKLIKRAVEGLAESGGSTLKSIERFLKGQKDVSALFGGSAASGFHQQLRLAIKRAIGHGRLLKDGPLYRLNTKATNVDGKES
Oligonucleotide | E-score
TCACGCGA | -0.0413
CCTTTCGC | 0.0155
AATCCCGC | 0.13
ATCTTCAT | 0.0225
GCTGGTCA | 0.0901
TTGAACAA | 0.0476
AAGGCATT | 0.0509
ACTTGGGA | 0.0677
AATTCTAT | -0.0601
ACCCACAA | 0.145
ACAATGGA | 0.052
ACTCTCAA | -0.0626
GCCTCAAA | 0.0846
CGGCTGCC | 0.204
AGGCTCTG | -0.0175
ACGACCAG | -0.00587
ACGCGCCG | 0.0572

Sample 5
Target: Ras GTPase-activating protein-binding protein 1, full length (G3BP1, Homo sapiens, UniProt Q13283)
Chain of UniProt Q13283 (whole entry, looked up): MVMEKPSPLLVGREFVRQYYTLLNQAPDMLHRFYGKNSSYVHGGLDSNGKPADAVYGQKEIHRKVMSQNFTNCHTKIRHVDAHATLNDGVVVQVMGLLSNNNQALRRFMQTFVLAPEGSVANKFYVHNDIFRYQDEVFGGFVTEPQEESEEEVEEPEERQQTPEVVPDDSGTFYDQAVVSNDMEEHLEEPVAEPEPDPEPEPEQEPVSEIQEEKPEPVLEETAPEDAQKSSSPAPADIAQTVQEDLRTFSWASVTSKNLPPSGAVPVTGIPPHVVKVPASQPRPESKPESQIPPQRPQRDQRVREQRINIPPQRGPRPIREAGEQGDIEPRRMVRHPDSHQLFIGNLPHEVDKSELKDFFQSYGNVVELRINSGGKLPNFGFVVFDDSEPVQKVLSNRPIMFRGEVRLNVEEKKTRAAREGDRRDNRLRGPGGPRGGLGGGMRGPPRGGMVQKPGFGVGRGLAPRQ
Technique: RNA Bind-n-Seq
Form: RNA
Sample: in vitro
Tested at: 200 nM
Setting: whole 134-nt RNA, ends assumed
Together with: 150 mM KCl
Baseline: input library
Reading: higher = stronger binding
Oligonucleotide | log2 enrichment
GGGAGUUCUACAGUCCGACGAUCCUCAAGUCCUGUGCUACACAUCGUAUGUACCGAAUCGGGAGGGGAGGGAGGGGAAAGUAUUAUGUUACGCCGUUCGGAUCUGCACUUCCAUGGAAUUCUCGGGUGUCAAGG | 1.53
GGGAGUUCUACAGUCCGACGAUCGUCCUGUGCUACACAUCGUAUGUACCGAAUCGGGGUUUUUGGGGAAAGGGGAAAGGGGAAAGUAUUAUGUUACGCCGUUCGGAUCUGCACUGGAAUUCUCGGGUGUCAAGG | 0.624
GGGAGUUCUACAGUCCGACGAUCUCAAGUCCUGUGCUACACAUCGUAUGUACCGAAUCGGGUUGGGGUUGGGGUUGGAAAGUAUUAUGUUACGCCGUUCGGAUCUGCACUUCCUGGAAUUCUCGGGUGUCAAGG | 0.251
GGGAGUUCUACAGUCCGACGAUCACCAUGCAGGUGGGCAUCUUUGGGAAGUGGGGCAAGGGGGGGAUAAAAAGGGGGGUAACACUUUGGGAACAGGUGGUCCCAGGUCGUUUCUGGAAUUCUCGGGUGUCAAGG | 0.585
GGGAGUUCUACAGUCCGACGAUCUGGGAGGUGGAUUUUGUUUAUUUUUUUAGCUCAUUUCCAGGGGUGGGAAUUUUUUUUUAAUAUGUGUCAUGAACAAAGUUGUUUUUGAAAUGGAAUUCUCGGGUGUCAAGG | 0.362
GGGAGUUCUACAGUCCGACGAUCUUUUCAAGGGGGCCCCAACUGGGGCCGCCUUGUAGCCUUCUUUGUCUUUGGGGCUGCACUGUGUGCUGAGAGUGUCAACAAGGAGAUGGAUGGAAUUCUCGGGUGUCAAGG | -1.04
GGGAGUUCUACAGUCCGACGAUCAGGACGUGCAGAACUUCCUCUCUGACUGCACGAUUCAUGAUGGGGCCGCAGGUGUCCAUUUCAUCUACACUAGAGAGGGCAGGCAGAGUGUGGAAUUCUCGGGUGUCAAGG | 0.727
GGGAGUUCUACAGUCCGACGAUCUCCUGUGCUACACAUCGUAUGUACCGAAUCGGCCCCCCGGCCCCCCGGGGCCCCCCGGGGAAAGUAUUAUGUUACGCCGUUCGGAUCUGCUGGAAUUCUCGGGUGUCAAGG | -0.372
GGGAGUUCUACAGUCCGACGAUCUCAAGUCCUGUGCUACACAUCGUAUGUACCGAAUCGGGCCCGGCCCGGGGCCCGGAAAGUAUUAUGUUACGCCGUUCGGAUCUGCACUUCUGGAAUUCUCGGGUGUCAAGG | -0.873
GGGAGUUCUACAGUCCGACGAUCUGUUUAAUAAACGUGAAGAUGUCUCGCAGUCCUGAUGCGAAGGAAGACCCUGUGGAGUGCCCUCUUUGCAUGGAGCCCUUGGAGAUAGAUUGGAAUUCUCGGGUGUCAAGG | -0.993
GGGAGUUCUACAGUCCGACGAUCUCAAGUCCUGUGCUACACAUCGUAUGUACCGAAUCGGGAGGGAAAAAGGGAGGGAAAGUAUUAUGUUACGCCGUUCGGAUCUGCACUUCCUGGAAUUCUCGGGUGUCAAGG | 1.13
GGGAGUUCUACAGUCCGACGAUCAAGUCCUGUGCUACACAUCGUAUGUACCGAAUCGGGCCCCGGCCCCGGGCCCCGGGGAAAGUAUUAUGUUACGCCGUUCGGAUCUGCACUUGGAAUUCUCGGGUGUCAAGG | -1.12
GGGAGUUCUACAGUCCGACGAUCGUCCUGUGCUACACAUCGUAUGUACCGAAUCGGAAAAAAAGGUUUUUGGAAAAAAAGGAAAGUAUUAUGUUACGCCGUUCGGAUCUGCACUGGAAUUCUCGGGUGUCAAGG | -1.35
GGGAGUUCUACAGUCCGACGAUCCCUGUGCUACACAUCGUAUGUACCGAAUCGGGGAAAAAAAGGGGAAAGGGGUUUUUGGGGAAAGUAUUAUGUUACGCCGUUCGGAUCUGCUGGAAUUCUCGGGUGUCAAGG | 0.347

Sample 6
Target: CCNA2, cyclin fold, Cln2 fusion (human)
Technique: yeast growth competition, sequencing
Sample: yeast
Setting: strong parent motif
Baseline: not given
Reading: higher = stronger binding
Starting sequence: RBL1 docking peptide (human); GSAKRRLFGEDPP; partner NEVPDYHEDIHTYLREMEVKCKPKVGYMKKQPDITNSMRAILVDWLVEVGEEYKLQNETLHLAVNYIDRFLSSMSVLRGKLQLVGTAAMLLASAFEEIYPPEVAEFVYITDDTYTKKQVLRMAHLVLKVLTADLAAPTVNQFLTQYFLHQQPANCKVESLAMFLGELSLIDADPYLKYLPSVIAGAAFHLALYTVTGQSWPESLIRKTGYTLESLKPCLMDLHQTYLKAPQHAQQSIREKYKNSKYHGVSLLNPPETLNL
Substitution | normalised enrichment score
SSAKRRLFGEDPP [G1S] | 5.19
GSAKRRMFGEDPP [L7M] | 1.51
GSAKRRQFGEDPP [L7Q] | 0.625
GSAMRRLFGEDPP [K4M] | 1.87
GSAKDRLFGEDPP [R5D] | 0.0654
GSAKRRLFGELPP [D11L] | 5.93
GSAKRCLFGEDPP [R6C] | 4.67
GSAKRRLIGEDPP [F8I] | 2.19
GSAKRRLSGEDPP [F8S] | -0.686
GSAKRRKFGEDPP [L7K] | 1.31
GSAPRRLFGEDPP [K4P] | 0.627
GSAKRRLFQEDPP [G9Q] | 5.98
GSEKRRLFGEDPP [A3E] | 0.614
GSAKRDLFGEDPP [R6D] | 0.345
GSAKRRLFGEDWP [P12W] | 5.38
GSAKRRLFGEDPV [P13V] | 7.01
ESAKRRLFGEDPP [G1E] | 4.61

Single results of other studies
Molecule | target | test | system | setting | how to read | measurement | result
PhoQ, residues 284 288 289 292 302 303 SLANKL | PhoP, residues 12 14 15 18 19 SGWQI (Escherichia coli, UniProt P23836) | Sort-seq, refers to: YFP reporter | E. coli | PhoQ-PhoP variant library, together with: 10 µM Mg2+ | baseline: high Mg2+ state, higher = stronger signaling | fold induction | 0.91

A few entries again (sample 2):
Oligonucleotide | fitted relative affinity
CAGTTTATTTATTTTTACATGTGCTAG | 0.694 z-score
ACTGTGTTTTGGATGTCAGAGTGCTAG | 0.141 z-score
GACGGTTTCTGGTTTCGGGACGTGCTA | 5.76 z-score
TTAGGTTTACTTATCCTTTAGTGCTAG | -0.216 z-score
TTAGGACTGGGTCTCGCTTAGTGCTAG | 0.182 z-score
TTAGGACTGGATTTCGGTTAGTGCTAG | 0.451 z-score
TCAATAATGGATATATAACTGTGCTAG | 0.0619 z-score
CTGGCTGGGGTGGTGGCAGTGTGCTAG | -0.592 z-score
